# Measured values pooled from the literature.
# Compare with care: the assays were run in different laboratories. pIC50: −log10 of the molar value.
# Cell line: DU-145
Compound,assay,setting,pIC50
CC(=O)C=C(C)[O][Pd][c]1ccccc1C(=O)N=P12CN3CN(CN(C3)C1)C2,"cell growth or viability, MTT",24 h,4.02
CC(=O)[C@@H]1CCCN1C(=O)[C@@H]1CCCN1C(=O)[C@H](Cc1ccccc1)N(C)C(=O)OC(C)(C)C,"cell growth or viability, SRB",,6.00
O=C(N=P12CN3CN(CN(C3)C1)C2)c1cccc[c]1[Pd][Br].O=S(=O)([O-])c1cccc(P(c2cccc(S(=O)(=O)[O-])c2)c2cccc(S(=O)(=O)[O-])c2)c1.[Na+].[Na+].[Na+],"cell growth or viability, MTT",24 h,3.50
CC(=O)NCCOCCOCCOCCOCCOCCOCCOCCOCCC(=O)N[C@@H](CC(C)C)C(=O)N[C@@H](CC(C)C)C(=O)N[C@@H](CC(C)C)C(=O)N[C@@H](CC(C)C)C(=O)N[C@@H](CCCNC(=N)N)C(=O)N[C@H](C(=O)N[C@@H](CCCCN)C(=O)N[C@@H](CCCNC(=N)N)C(N)=O)C(C)C,"cell growth or viability, MTT",72 h,< 3.30
C[C@]1([N+](=O)[O-])C(=O)c2ccccc2O[C@@H]1CC(=O)OC12CC3CC(CC(C3)C1)C2,"cell growth or viability, SRB",96 h,5.60
COc1ccc(C(c2c[nH]c3ccc(OC)cc23)c2c[nH]c3ccc(OC)cc23)cc1,"cell growth or viability, MTT",24 h,4.92
COC(=O)[C@@H](NC(=O)[C@@H](NC(=O)[C@@H](NC(=O)OC(C)(C)C)C(C)C)C(C)C)C(C)C,"cell growth or viability, SRB",,4.77
C[C@]1([N+](=O)[O-])C(=O)c2ccccc2O[C@@H]1CC(=O)Nc1nc2ccccc2s1,"cell growth or viability, SRB",96 h,< 4.30
O=[N+]([O-])c1ccc(C(c2c(-c3ccccc3)[nH]c3ccccc23)c2c(-c3ccccc3)[nH]c3ccccc23)cc1,"cell growth or viability, MTT",24 h,4.04
Cl.[Cl][Ru-4]123([n+]4ccccc4-c4cc(-c5ccccc5)cc([n+]41)-c1cccc[n+]12)[n+]1ccc(-c2ccccc2)c2ccc4c(-c5ccccc5)cc[n+]3c4c21,cell growth or viability,"72 h, 3D culture",5.31
O=C(/C=C/C=C/c1ccccc1)c1ccccc1OCc1cc(F)cc(F)c1,"cell growth or viability, MTT",48 h,4.33
CCOC(=O)C[C@H]1Oc2ccccc2C(=O)[C@]1(C)[N+](=O)[O-],"cell growth or viability, SRB",96 h,< 4.30
COc1cc(C2Oc3ccc(C=C4Oc5cc(O)ccc5C4=O)cc3OC2CO)cc(OC)c1O (stereo not shown),"cell growth or viability, MTT",72 h,4.12
C[C@]1([N+](=O)[O-])C(=O)c2ccccc2O[C@@H]1CC(=O)OC1CCCCC1,"cell growth or viability, SRB",96 h,4.68
O=C(O)c1ccc([P+]([Au-][Cl])(c2ccccc2)c2ccccc2)cc1,"cell viability, XTT",24 h,4.49
COc1cc(C(=O)NC2CCC(N3CCN(C[C@H]4CC4(F)F)CC3)CC2)c(F)cc1Nc1ncc2c(n1)N([C@H]1CCCC1(F)F)CC(F)(F)C(=O)N2C (stereo partly shown),"cell growth or viability, MTT",72 h,9.33
Cc1ccc(C(C)C)cc1.O=C(N=P12CN3CN(CN(C3)C1)C2)c1[c-]cccc1.[Cl-].[Ru+2],"cell growth or viability, MTT",24 h,3.90
O=C1Nc2ccccc2/C1=N/c1ccccc1C(=O)Nc1ccccc1,"cell growth or viability, MTT",24 h,4.76
C1=CCCC=CCC1.F[P-](F)(F)(F)(F)F.[Pt+][c]1ccccc1P(=Nc1ccccc1)(c1ccccc1)c1ccccc1,"cell growth or viability, MTT",24 h,6.09
CCC(CC)c1nc(-c2ccc(O)cc2O)cs1,"cell growth or viability, resazurin",72 h,5.06
O=C([O][Ti+2][O]C(=O)c1ccc([P+]([Au-][Cl])(c2ccccc2)c2ccccc2)cc1)c1ccc([P+]([Au-][Cl])(c2ccccc2)c2ccccc2)cc1.c1cc[cH-]c1.c1cc[cH-]c1,"cell viability, XTT",24 h,4.48
COc1cc(C(=O)NC2CCC(N3CCN(CC4CCC(C)C4)CC3)CC2)c(F)cc1Nc1ncc2c(n1)N(C1CCCC1(F)F)CC(F)(F)C(=O)N2C (stereo not shown),"cell growth or viability, MTT",72 h,9.64
O=[N+]([O-])c1ccc(/N=N/c2ccc(O)c(O)c2)cc1,"cell growth or viability, resazurin",72 h,4.65
COc1cc(C(=O)NC2CCC(N3CCC[C@@H](C)C3)CC2)c(F)cc1Nc1ncc2c(n1)N([C@H]1CCCC1(F)F)CC(F)(F)C(=O)N2C (stereo partly shown),"cell growth or viability, MTT",72 h,9.46
Cc1ccc(C(C)C)cc1.F[P-](F)(F)(F)(F)F.O=C(N=P(c1ccccc1)(c1ccccc1)c1ccccc1)c1ccccn1.[Cl-].[Ru+2],"cell growth or viability, MTT",24 h,5.72
CC(=O)[C@@H]1CCCN1C(=O)[C@@H]1CCCN1C(=O)[C@H](Cc1ccccc1)NC(=O)OC(C)(C)C,"cell growth or viability, SRB",,4.89
Cc1ccc(C(c2c[nH]c3ccccc23)c2c[nH]c3ccccc23)cc1,"cell growth or viability, MTT",24 h,4.82
Cc1ccc(C(C)C)cc1.[Cl-].[Cl-].[Ru+2].c1ccc(P(=Nc2cccc3cccnc23)(c2ccccc2)c2ccccc2)cc1,"cell growth or viability, MTT",24 h,5.18
O=C(Nc1ccc(F)cc1)c1ccccc1-n1c(=O)[nH]c2ccccc2c1=O,"cell growth or viability, MTT",24 h,4.89
COC(=O)[C@@H](NC(=O)[C@@H](NC(=O)OC(C)(C)C)C(C)C)C(C)C,"cell growth or viability, SRB",,5.30
Cc1ccc2c(c1)C(=O)[C@](C)([N+](=O)[O-])[C@@H](CC(=O)NC13CC4CC(CC(C4)C1)C3)O2,"cell growth or viability, SRB",96 h,5.76

# Excerpt of the above:
Compound,assay,setting,pIC50
O=[N+]([O-])c1ccc(/N=N/c2ccc(O)c(O)c2)cc1,"cell growth or viability, resazurin",72 h,4.65
CC(=O)NCCOCCOCCOCCOCCOCCOCCOCCOCCC(=O)N[C@@H](CC(C)C)C(=O)N[C@@H](CC(C)C)C(=O)N[C@@H](CC(C)C)C(=O)N[C@@H](CC(C)C)C(=O)N[C@@H](CCCNC(=N)N)C(=O)N[C@H](C(=O)N[C@@H](CCCCN)C(=O)N[C@@H](CCCNC(=N)N)C(N)=O)C(C)C,"cell growth or viability, MTT",72 h,< 3.30
